Assay results from different studies.
Lines come from different studies, so protocols differ. Numbers after ± are the reported error.
Sequence of UniProt P40939 (whole entry, looked up): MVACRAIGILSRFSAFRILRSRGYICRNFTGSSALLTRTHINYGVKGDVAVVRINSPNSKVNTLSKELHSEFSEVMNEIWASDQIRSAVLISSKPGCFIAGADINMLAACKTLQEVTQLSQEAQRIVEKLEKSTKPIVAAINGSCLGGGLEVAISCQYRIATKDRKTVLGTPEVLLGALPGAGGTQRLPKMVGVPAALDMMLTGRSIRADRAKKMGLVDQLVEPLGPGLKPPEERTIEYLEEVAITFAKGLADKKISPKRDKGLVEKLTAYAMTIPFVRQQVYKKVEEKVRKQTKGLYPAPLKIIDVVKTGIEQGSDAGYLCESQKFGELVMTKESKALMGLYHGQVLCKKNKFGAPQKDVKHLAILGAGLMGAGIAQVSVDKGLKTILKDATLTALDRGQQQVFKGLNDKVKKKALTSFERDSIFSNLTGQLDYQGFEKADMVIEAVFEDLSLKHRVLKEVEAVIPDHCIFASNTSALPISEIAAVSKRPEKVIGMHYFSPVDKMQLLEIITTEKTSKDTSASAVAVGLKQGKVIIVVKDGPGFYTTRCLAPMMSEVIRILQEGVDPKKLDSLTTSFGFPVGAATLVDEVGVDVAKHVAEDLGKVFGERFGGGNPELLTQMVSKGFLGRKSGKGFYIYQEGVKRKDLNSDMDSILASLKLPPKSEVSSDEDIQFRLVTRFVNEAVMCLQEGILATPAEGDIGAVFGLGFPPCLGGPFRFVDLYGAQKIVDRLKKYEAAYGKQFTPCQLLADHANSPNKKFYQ

C[C@]1(CO)Cc2ncn(-c3ccc(C#N)c(Cl)c3)c2C(=O)O1
Tmax (healthy Japanese adults, plasma; 3 mg single dose): 1 h

COc1cc2c(Oc3ccc4[nH]c(C)cc4c3F)ccnc2cc1OCC1(N)CC1
Tinnitus incidence (paediatric refractory sarcoma patients; 8 mg): 0%

Cc1ncccc1-c1nc2cc(C(=O)NCCCc3ccccc3)ccc2o1
maximum response (Vero-E6; CellTiter-Glo ATP; 72 h, retest 8-point duplicates; baseline: DMSO 0%, hyamine -100%, more negative, more toxic): -8.09%

CN1CC[C@@H](c2c(O)cc(O)c3c(=O)cc(-c4ccc(C(F)(F)F)cc4Cl)oc23)[C@@H]1CO
patients with adverse event (measured: Neutropenia; relapsed B-cell malignancies; oral, 200 mg, grade 3-4, intermittent dosing): 0%

COc1ccc2c(Sc3ccccc3)c(C(=O)NCCCN3CCCCC3)[nH]c2c1
cytotoxicity efficacy (Vero-E6; CellTiter-Glo ATP; concentration not given, 72 h, second round 5-point; baseline: DMSO 0%, hyamine -100%, more negative, more toxic): -17.1%

CC(=O)c1c(C)c2cnc(Nc3ccc(C4CCN(CCS(C)(=O)=O)CC4)cn3)nc2n(C2CCCC2)c1=O
CL (human, plasma; oral, 25 mg once daily, day 1, single dose): 1110 mL/min

C[C@@H](O)[C@@H](CO)NC(=O)[C@@H](CCCNC(=N)N)NC(=O)[C@@H]1CCCN1C(=O)[C@@H]1CSSC[C@H](NC(=O)[C@H](Cc2ccccc2)NC(=O)CN2CCN(CC(=O)O)CCN(CC(=O)O)CCN(CC(=O)O)CC2)C(=O)N[C@@H](Cc2ccc(O)cc2)C(=O)N[C@@H](Cc2ccccc2)C(=O)N[C@@H](CCC(N)=O)C(=O)N[C@@H](CC(N)=O)C(=O)N1 [gallium-68 labelled]
radiochemical purity (human serum; 1 h, 37 °C): > 99%

C[C@H]1CN(c2n[nH]c3nc(N[C@H]4CC[C@H](NS(=O)(=O)CCC(F)(F)F)CC4)ncc23)CCO1
IC50 (Trifunctional enzyme subunit alpha, mitochondrial (HADHA, Homo sapiens, UniProt P40939); biochemical): ≥ 20 µM

O=C1c2c(O)c(=O)ccn2N([C@@H]2c3ccccc3SCc3c2ccc(F)c3F)[C@@H]2COCCN12
plasma concentration (BALB/c mice, plasma; oral, 50 mg/kg baloxavir marboxil, 2 h): 284 ng/mL

CCCC(C(=O)c1ccc2c(c1)OCO2)N1CCCC1.Cl (racemic)
brain-to-plasma ratio (rat; subcutaneous, 4 mg/kg, 40 min): 11.7 ± 1

CO[C@H]1C[C@@H]2CC[C@@H](C)[C@@](O)(O2)C(=O)C(=O)N2CCCC[C@H]2C(=O)O[C@H]([C@H](C)C[C@@H]2CC[C@@H](OC(=O)NCCOCCOCCOCCOCCOCCOCCOCCOCCC(=O)N3CCc4cc(Cn5nc(-c6ccc7oc(N)nc7c6)c6c(N)ncnc65)ccc4C3)[C@H](OC)C2)C[C@@H](O)[C@H](C)/C=C(\C)[C@@H](O)[C@@H](OC)C(=O)[C@H](C)C[C@H](C)/C=C/C=C/C=C/1C
dose-reducing adverse events (phase 1 dose escalation, measured: neutropenia; advanced solid tumour patients; intravenous, 16 mg weekly, grade ≥3): 25%

Cc1ccc2nc(Cl)c3cc(C(=O)NCCCN4CCC(C)CC4)sc3c2c1
cytotoxicity efficacy (Vero-E6; CellTiter-Glo ATP; concentration not given, 72 h, retest 8-point duplicates; baseline: DMSO 0%, hyamine -100%, more negative, more toxic): 0%

COc1cccc(-c2cc(F)ccc2[C@H]2Cc3nc(N)nc(C)c3C(=O)N2)n1
maximum inhibition (human coronavirus OC43; virus-induced cell killing; MRC-5; screen): 27.8%

COc1ccc(CCNC(=O)c2cc(Nc3ccccc3)nc3ccccc23)cc1OC
maximum response (Vero-E6; CellTiter-Glo ATP; 72 h, retest 8-point duplicates; baseline: DMSO 0%, hyamine -100%, more negative, more toxic): -10.9%

CNC(=O)c1ccc2cc([C@@]3(O)CCn4cncc43)ccc2c1
maximum inhibition (human coronavirus OC43; virus-induced cell killing; MRC-5; screen): 9.8%

CC(=O)N1CCC(C(=O)N2CCN3C(=O)c4cc(-c5ccccc5)ccc4NC(=O)C3C2)CC1 (stereo not shown)
revertants per plate (Salmonella typhimurium; TA1535; 5000 µg/plate, added: rat liver S9): 15.5

For quick reference, copied from above:
CC(=O)N1CCC(C(=O)N2CCN3C(=O)c4cc(-c5ccccc5)ccc4NC(=O)C3C2)CC1 (stereo not shown)
revertants per plate (Salmonella typhimurium; TA1535; 5000 µg/plate, added: rat liver S9): 15.5

CNC(=O)c1ccc2cc([C@@]3(O)CCn4cncc43)ccc2c1
maximum inhibition (human coronavirus OC43; virus-induced cell killing; MRC-5; screen): 9.8%
